Measurements pooled from the literature.
Each line is one published result; not all experiments were run side by side. “And” joins repeats or separate records; there may be more than shown. Numbers after ± are the reported error.

CC/C(=C(\c1ccccc1)c1ccc(OCCNC)cc1)c1ccccc1  IC50 (cultured mouse DRG neurons; sodium current, whole-cell voltage clamp; 5 min, -10 mV trains at 0.2 Hz): 1.7 µM
CC[C@H](C)[C@H](NC(=O)[C@H](CCC(=O)O)NC(=O)[C@H](CO)NC(=O)[C@H](CC(C)C)NC(=O)[C@H](CC(C)C)NC(=O)[C@H](CC(C)C)NC(=O)[C@H](CC(C)C)NC(=O)[C@@H](NC(=O)[C@@H](NC(=O)[C@H](CC(=O)O)NC(=O)[C@@H](N)CC(=O)O)[C@@H](C)O)[C@@H](C)O)C(=O)NCC(=O)N[C@@H](C)C(=O)NCC(=O)N[C@@H](CCSC)C(=O)N[C@@H](Cc1c[nH]c2ccccc12)C(=O)N[C@H](C(=O)N[C@@H](CO)C(=O)N[C@@H](CC(C)C)C(=O)N[C@H](C(=O)N[C@@H](CCC(=O)O)C(=O)N[C@@H](CC(C)C)C(=O)N[C@H](C(=O)N[C@@H](C)C(=O)N[C@@H](CC(=O)O)C(=O)N[C@@H](C)C(=O)N[C@@H](CC(=O)O)C(=O)N[C@@H](CCC(=O)O)C(=O)NCC(=O)O)[C@@H](C)CC)C(C)C)C(C)C  IC50 (HSC-3 expressing PTPRJ; cell viability, MTT; 10 min then 72 h recovery, pH 5.5): 0.54 µM
Trastuzumab emtansine  IC50 (BT-474; cell viability, CellTiter-Glo; 5 days, concentration as DM1 content): 0.0023 ± 0.0006 µM
CC(=C[n+]1ccc(-c2ccccc2)cc1)c1ccccc1  IC50 (MN9D; cell viability, MTT; 18 h): ~23 µM and 23 µM
COc1ccc2ccc(=O)oc2c1OC  IC50 (PAM212; cell growth; 4 to 5 days, added: UVA 1.28 J/cm^2): 33 µM
O=S(=O)([O-])[O-].[Cu+2]  IC50 (Caco-2 monolayers; viability, MTT; 96 h, repeated daily dosing): 439 µM
O=C(Cn1cnc2ccccc2c1=O)Nc1ccccc1O  IC50 (HepG2.2.15; cell growth or viability, crystal violet; 48 h): > 100 µM
COc1ccc2c(c1)[nH]c1c(C)nccc12  IC50 (C4-2; cell growth or viability, MTT; 48 h): ~14 µM
ClC1=C(Cl)C2(Cl)C3C4C=CC(C4)C3C1(Cl)C2(Cl)Cl (centres unmarked)  IC50 (PC6-3; cell viability, MTT; 4 h): 46 µM
N.N.[Cl][Pt][Cl]  IC50 (human iPSC-derived sensory neurons; neurite total length, high-content imaging; 48 h): 0.005 µM
O=C1C=C2C=C[C@@H]3C[C@@]2(O1)[C@H]1CCCCN31  IC50 (293FT; cell viability): > 42 µM
COC(=O)[C@H](C)NP(=O)(N[C@@H](C)C(=O)OC)OC[C@H]1O[C@@H](n2cnc(C(N)=O)c2N)[C@H](O)[C@@H]1O  IC50 (human T-lymphocyte; cell growth or viability; 72 h): > 250 µM
CC[C@H](C)[C@H](NC(=O)[C@H](CCCCN)NC(=O)[C@H](CCCCN)NC(=O)[C@H](CC(C)C)NC(=O)[C@@H](NC(=O)[C@H](CCCCN)NC(=O)[C@H](C)NC(=O)[C@H](C)NC(=O)[C@@H](NC(=O)CNC(=O)[C@H](C)NC(=O)[C@@H](NC(=O)[C@@H](NC(=O)[C@@H]1CCCN1C(=O)[C@H](Cc1ccccc1)NC(=O)[C@@H](N)Cc1ccccc1)[C@@H](C)CC)C(C)C)C(C)C)C(C)C)C(=O)N[C@@H](Cc1ccccc1)C(=O)N[C@H]1CSSC[C@@H](C(=O)O)NC(=O)[C@H](CCCCN)NC(=O)[C@H](CCCCN)NC(=O)[C@H](CO)NC(=O)[C@H]([C@@H](C)CC)NC(=O)[C@H]([C@@H](C)O)NC1=O  IC50 (HaCaT; cell growth or viability, MTT): 62.7 µM
[Cl][Cd][Cl]  IC50 (Caco-2 monolayers; transepithelial resistance; 48 h, repeated dosing): 30 µM
COc1ccc(NC(=O)Cn2cnc3ccccc3c2=O)c([N+](=O)[O-])c1  IC50 (HepG2.2.15; cell growth or viability, crystal violet; 48 h): > 100 µM
CC(C)[C@]12O[C@H]1[C@@H]1O[C@]13[C@]1(O[C@H]1C[C@H]1C4=C(CC[C@@]13C)C(=O)OC4)[C@@H]2O  IC50 (HEK-293T; cell growth or viability, thymidine uptake; 24 h): 0.0056 µM
O=C(Cn1cnc2ccccc2c1=O)NCc1cccnc1  IC50 (HepG2.2.15; cell growth or viability, crystal violet; 48 h): 52 µM
CC1(C)OC2=C(C(=O)C(=O)c3ccccc32)[C@@H](n2cc(C[Se]c3ccccc3)nn2)[C@@H]1Br  IC50 (six human cancer cell lines; MTT; 72 h, range over cell lines): 0.07 to 2.52 µM
CC[C@@]1(O)C(=O)OCc2c1cc1n(c2=O)Cc2cc3ccccc3nc2-1  IC50 (HUVEC; cell growth or viability, MTT; 48 h): 0.25 µM
N#CC(=C(/N)Sc1ccccc1N)/C(C#N)=C(/N)Sc1ccccc1N  IC50 (HeLa; H1R promoter reporter gene; p65 construct, region B1 only, pretreatment 1 h, added: PMA 100 nM for 10 h): 0.43 µM
N=C(N)NCCC[C@H](NC(=O)[C@H](Cc1c[nH]c2ccccc12)NC(=O)[C@H](CCC(N)=O)NC(=O)[C@H](Cc1c[nH]c2ccccc12)NC(=O)[C@H](CCCNC(=N)N)NC(=O)[C@H](Cc1c[nH]c2ccccc12)NC(=O)[C@H](CCC(N)=O)NC(=O)[C@H](Cc1c[nH]c2ccccc12)NC(=O)[C@@H](N)CCCN)C(N)=O  IC50 (HT-29; cell growth or viability, MTT): > 138 µM
CC(C)c1ccc2c(c1)CC[C@H]1[C@](C)(CN)CCC[C@]21C  IC50 (WM35; cell growth or viability, MTS; 24 h): 7.02 µM
N.N.[Cl][Pt][Cl]  IC50 (CCD-18Co; cell growth or viability, MTT; 72 h): 31.3 µM
N.N.[Cl][Pt][Cl]  IC50 (L-O2; MTT; 48 h): 3.64 ± 0.1 µM
O=P12CN3CN(CN(C3)C1)C2  IC50 (Jurkat; cytotoxicity, MTT; 24 h, 1% DMSO): > 500 µM
Cc1cc(C)n(C(=S)[S][Au-][P+](c2ccccc2)(c2ccccc2)c2ccccc2)n1  IC50 (PHA-P stimulated human PBMC; cell growth, MTT; 3 d): 8.63 ± 3.77 µM
NC1(c2ccc(-c3nc4ccn5c(=O)[nH]nc5c4cc3-c3ccccc3)cc2)CCC1  IC50 (MDA-MB-231 spheroids, LINK-A PIP3-BM+/+; spheroid growth, 3D spheroid viability): ~11.7 µM
N.N.[Cl][Pt][Cl]  IC50 (H460; cell viability, MTT; 4 h): 13.9 ± 9.32 µM
COc1cc(O)c2c(c1)/C=C/C[C@H](O)[C@H](O)C(=O)/C=C/C[C@H](C)OC2=O  IC50 (NCI-H460; cell growth or viability; 72 h): 1.2 µM
N.N.[Cl][Pt][Cl]  IC50 (A2780; cell growth or viability, MTT): 1.6 µM
C[C@H]1C[C@H]2[C@@H]3CCC4=CC(=O)C=C[C@]4(C)[C@@]3(Cl)[C@@H](O)C[C@]2(C)[C@@]1(O)C(=O)CO  IC50 (H2030 (EGFR wild type); cell viability, Alamar Blue; 120 h): > 10 µM
NC(=S)N/N=C/C=N/NC(N)=S  IC50 (HeLa; cell growth or viability, MTT): 0.067 µM
N.N.[Cl][Pt][Cl]  IC50 (MRC5; cell growth or viability, resazurin): 33.7 µM
O=C(CCCN1CCC2(CC1)C(=O)NCN2c1ccccc1)N(CC1CCCCC1)c1ccccc1  IC50 (primary pancreatic cancer KRAS G12D; cell growth; 72 h): 6.4 to 7.6 µM
C/C=C(/C)C(=O)O[C@H]1C(C)=C2[C@H]([C@@H]1OC(=O)CCCCC)[C@@](C)(OC(C)=O)C[C@H](OC(=O)CCC)[C@@]1(O)[C@H]2OC(=O)[C@@]1(C)O  IC50 (LAPC4; AR transcriptional activity, antagonist, PSA promoter luciferase; 24 h): 2.78 µM
CC(/C=C/C(C)=C/[C@@H]1Cc2nc(cs2)CC[C@@H](N)CC(=O)O[C@@H](C)C/C(C)=C/C=C\C(=O)O1)=C\CN(C)C  IC50 (primary CLL cells; apoptosis, annexin V/PI staining; 24 h, 10% FBS): 0.3 ± 0.27 µM
CCN.CCN.O=C([O-])CC(=O)[O-].O=C([O-])CC(=O)[O-].[Pt+4]  IC50 (CH1; cell viability, MTT; 96 h): 222 ± 14 µM
O=S(=O)([O-])C(F)(F)F.OCc1ccnc(-c2cc(CO)ccn2)c1.[Ru+2].c1cc[cH-]c1.c1ccc(P(c2ccccc2)c2ccccc2)cc1  IC50 (HEK293 empty vector control; cell growth, MTT; 48 h): < 7 µM
Cc1c2oc3c(C)ccc(C(=O)N[C@@H]4C(=O)N[C@H](C(C)C)C(=O)N5CCC[C@H]5C(=O)N(C)CC(=O)N(C)[C@@H](C(C)C)C(=O)O[C@@H]4C)c3nc-2c(C(=O)N[C@@H]2C(=O)N[C@H](C(C)C)C(=O)N3CCC[C@H]3C(=O)N(C)CC(=O)N(C)[C@@H](C(C)C)C(=O)O[C@@H]2C)c(N)c1=O  IC50 (LAPC4; androgen receptor transcriptional activity, inhibitor; 24 h): 0.0011 µM
N.N.[Cl][Pt][Cl]  IC50 (NCI-H460; cell growth or viability, MTT; 72 h): 2.92 µM
COc1ccc(NC(=O)Cn2cnc3ccccc3c2=O)c(N)c1  IC50 (HEK293; cell growth or viability, crystal violet; 48 h): > 100 µM
CC(/C=C/C(C)=C/[C@@H]1Cc2nc(cs2)CCCCC(=O)O[C@@H](C)C/C(C)=C/C=C\C(=O)O1)=C\CN(C)C  IC50 (primary CLL cells; apoptosis induction, annexin V/PI staining; 24 h, average over patient samples): 5.21 ± 1.53 µM
C#CC[C@H](NC(=O)CNC(=O)CNC(=O)[C@H](Cc1ccc(O)cc1)NC(=O)[C@H](CCCNC(=N)N)NC(=O)[C@H](CCC(N)=O)NC(=O)[C@@H]1CCCN1C(=O)[C@H](CCC(N)=O)NC(=O)[C@H](Cc1ccc(O)cc1)NC(=O)[C@@H](NC(=O)[C@H](CCCNC(=N)N)NC(=O)[C@@H]1CCCN1C(=O)[C@H](CCCNC(=N)N)NC(=O)[C@H](CC(C)C)NC(=O)[C@H](CC(N)=O)NC(=O)[C@H](Cc1ccc(O)cc1)NC(=O)CNC(=O)CN)[C@@H](C)O)C(N)=O  IC50 (HEK293; cell growth or viability, MTT): > 200 µM
COc1cc2c(c(OC)c1OC)-c1ccc(N)c(=O)cc1[C@@H](NC(C)=O)CC2  IC50 (MCF7 MT1-MMP negative; cell viability, MTT; 96 h exposure): 0.063 ± 0.02 µM
C[C@H](NP(=O)(N[C@@H](C)C(=O)OCc1ccccc1)OC[C@H]1O[C@@H](n2cnc(C(N)=O)c2N)[C@H](O)[C@@H]1O)C(=O)OCc1ccccc1  IC50 (human T-lymphocyte; cell growth or viability; 72 h): > 250 µM
N.N.[Cl][Pt][Cl]  IC50 (Fem-X; cell growth or viability): 4.7 µM
O=c1[nH]c(=O)n([C@H]2C[C@H](O)[C@@H](CO)O2)cc1C(F)(F)F  IC50 (293FT; cell viability): > 15 µM
CSCC[C@H](NC(=O)[C@H](CCC(N)=O)NC(=O)[C@H](CCC(N)=O)NC(=O)[C@H](CO)NC(=O)[C@H](CCCNC(=N)N)NC(=O)[C@H](CCC(=O)O)NC(=O)CNC(=O)[C@H](CC(C)C)NC(=O)CNC(=O)[C@H](CC(N)=O)NC(=O)[C@@H](NC(=O)[C@@H](N)CCC(N)=O)C(C)C)C(=O)O  IC50 (SiHa; CCK-8; 36 h): 208 ± 13.5 µg/mL
N.N.[Cl][Pt][Cl]  IC50 (human PBMC; cytotoxicity, MTT; 24 h): 500 ± 18 µM
lead  IC50 (U-251 empty vector transfected; cell growth): 4.8 µM

Some of these lines once more:
CC(/C=C/C(C)=C/[C@@H]1Cc2nc(cs2)CCCCC(=O)O[C@@H](C)C/C(C)=C/C=C\C(=O)O1)=C\CN(C)C  IC50 (primary CLL cells; apoptosis induction, annexin V/PI staining; 24 h, average over patient samples): 5.21 ± 1.53 µM
O=C(Cn1cnc2ccccc2c1=O)NCc1cccnc1  IC50 (HepG2.2.15; cell growth or viability, crystal violet; 48 h): 52 µM
O=C(Cn1cnc2ccccc2c1=O)Nc1ccccc1O  IC50 (HepG2.2.15; cell growth or viability, crystal violet; 48 h): > 100 µM
